{"data": "Published values collected from several papers", "note": "Each numbered part is a random draw from the data of one study; scales do not carry over between parts."}
{"data": "Sample 1", "target": "Histone acetyltransferase KAT6A, winged helix 2, GST fusion (KAT6A, Homo sapiens, UniProt Q92794, residues 85-181)", "method": "protein binding microarray", "form": "double-stranded DNA, one strand shown", "medium": "in vitro", "tested at": "not given", "setting": "8-mer, flanks averaged, mean of 2 arrays, mostly near background", "baseline": "not given", "reading": "higher = stronger binding", "Target sequence (chain)": "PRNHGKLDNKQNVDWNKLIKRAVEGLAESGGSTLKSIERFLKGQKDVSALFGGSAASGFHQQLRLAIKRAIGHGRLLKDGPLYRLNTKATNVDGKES"}
{"Strand": "AGGACATC", "E-score": 0.163}
{"Strand": "ATAACAAC", "E-score": -0.0298}
{"Strand": "CCTGATAA", "E-score": 0.00936}
{"Strand": "TCAGACCA", "E-score": -0.0616}
{"Strand": "ACAGGGGT", "E-score": -0.248}
{"data": "Sample 2", "target": "Sal-like protein 4, full length isoform B (SALL4, Homo sapiens, UniProt Q9UJQ4-2, residues 1-616)", "method": "universal PBM", "form": "double-stranded DNA, one strand shown", "medium": "in vitro", "tested at": "not given", "setting": "8-mer, flanks averaged, mean of replicates", "reading": "higher = stronger binding"}
{"Strand": "AAAGTCTG", "E-score": 0.0391}
{"Strand": "GCCTAAAA", "E-score": 0.00381}
{"Strand": "AAAATGGA", "E-score": 0.213}
{"data": "Sample 3", "target": "Ras GTPase-activating protein-binding protein 1, full length (G3BP1, Homo sapiens, UniProt Q13283)", "method": "RNA Bind-n-Seq", "form": "RNA", "medium": "in vitro", "tested at": "200 nM", "setting": "whole 134-nt RNA, ends assumed", "added": "150 mM LiCl", "baseline": "input library", "reading": "higher = stronger binding", "library": "7-deaza-guanosine replaces G", "sequence of UniProt Q13283 (whole entry, looked up)": "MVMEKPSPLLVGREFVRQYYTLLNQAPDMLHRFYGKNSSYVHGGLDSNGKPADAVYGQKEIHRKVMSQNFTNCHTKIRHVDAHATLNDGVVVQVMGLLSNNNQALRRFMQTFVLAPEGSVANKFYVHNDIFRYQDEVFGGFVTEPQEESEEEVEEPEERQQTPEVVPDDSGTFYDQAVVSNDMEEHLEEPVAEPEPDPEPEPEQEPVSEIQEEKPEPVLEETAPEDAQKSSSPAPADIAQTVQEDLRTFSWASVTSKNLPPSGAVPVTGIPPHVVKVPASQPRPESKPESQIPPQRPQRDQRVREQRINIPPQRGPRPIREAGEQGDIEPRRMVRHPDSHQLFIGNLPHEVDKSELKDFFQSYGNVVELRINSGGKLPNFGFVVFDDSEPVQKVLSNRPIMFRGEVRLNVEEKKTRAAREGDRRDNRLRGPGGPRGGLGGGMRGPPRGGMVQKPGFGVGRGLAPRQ"}
{"Strand": "GGGAGUUCUACAGUCCGACGAUCGUCCUGUGCUACACAUCGUAUGUACCGAAUCGGGGAAAAAGGGAAAAAGGAAAAAGGGGAAAGUAUUAUGUUACGCCGUUCGGAUCUGCAUGGAAUUCUCGGGUGUCAAGG", "log2 enrichment": -0.0667}
{"Strand": "GGGAGUUCUACAGUCCGACGAUCUUAAGAAUUUGCUUAAAGAAGUGCGGAUCUAUGCACAGAAAUUUAUUGAUCGAGGAAAGGAUUUUAACUUGGAGUUGGCAAUUAAAACACUGGAAUUCUCGGGUGUCAAGG", "log2 enrichment": -0.704}
{"Strand": "GGGAGUUCUACAGUCCGACGAUCAAGUCCUGUGCUACACAUCGUAUGUACCGAAUCGGGGAAAAGGAAAAGGAAAAGGGGAAAGUAUUAUGUUACGCCGUUCGGAUCUGCACUUGGAAUUCUCGGGUGUCAAGG", "log2 enrichment": 0.371}
{"data": "Mixed results"}
{"Substance": "PhoQ, residues 284 288 289 292 302 303 NLALSC", "target": "PhoP, residues 12 14 15 18 19 LYHSL (Escherichia coli, UniProt P23836)", "test": "Sort-seq, item: YFP reporter", "test system": "E. coli", "setting": "PhoQ-PhoP variant library, added: 10 µM Mg2+", "scale": "baseline: high Mg2+ state, higher = stronger signaling", "quantity": "fold induction", "result": 1.67}
{"note": "A few entries again (mixed results):"}
{"Substance": "PhoQ, residues 284 288 289 292 302 303 NLALSC", "target": "PhoP, residues 12 14 15 18 19 LYHSL (Escherichia coli, UniProt P23836)", "test": "Sort-seq, item: YFP reporter", "test system": "E. coli", "setting": "PhoQ-PhoP variant library, added: 10 µM Mg2+", "scale": "baseline: high Mg2+ state, higher = stronger signaling", "quantity": "fold induction", "result": 1.67}
